Measurements from different studies.
Lines come from different studies, so protocols differ. Several values in a cell are separate wells, animals, samples, runs or records.
KIT: Mast/stem cell growth factor receptor Kit (KIT, Homo sapiens, UniProt P10721)
KIT T670I/V559D: Mast/stem cell growth factor receptor Kit (KIT, Homo sapiens, UniProt P10721, T670I/V559D)
KIT autoinhibited: Mast/stem cell growth factor receptor Kit, autoinhibited (KIT, Homo sapiens, UniProt P10721)
KIT D816V: Mast/stem cell growth factor receptor Kit (KIT, Homo sapiens, UniProt P10721, D816V)
KIT D816H: Mast/stem cell growth factor receptor Kit (KIT, Homo sapiens, UniProt P10721, D816H)

With `COc1ccc(C(=O)/C=C/c2ccccc2-c2c[nH]c3ccc(C#N)cc23)c(O)c1` the inhibition was 4% (KIT; enzyme activity, inhibitor; 20 µM).
`COc1cc(OC)c(F)c(/C=C/c2cnc3ccn(S(=O)(=O)c4cn(CCF)cn4)c3n2)c1F` has an inhibition of 0% (KIT; 10 nM).
`CNC1C[S+]2CC[S+]3CC[S+](C1)[Ru-4]321([N]=C=S)[n]2c3ccc(OC)cc3c3c4c(c5cc(F)c[n+]1c5c32)C(=O)NC4=O` (stereo not shown) has a remaining binding of 56% (KIT (Homo sapiens, UniProt P10721, L576P); KinomeScan; 0.1 µM; relative to: untreated).
With `COc1c(Cl)cccc1Nc1c(-c2ccncc2C#C[C@@]2(C)CCCN2C(=O)/C=C/CN(C)C)[nH]c2c1C(=O)NCC2` the remaining binding was 87% (KIT T670I/V559D; binding, competition with immobilised ligand; 3 µM).
For `Cc1cccc(O[C@H]2CCC[C@@H](C(C)CNCc3ccncc3)C2)c1` (relative stereo), the inhibition was -4% (KIT; enzyme activity, inhibitor; 10 µM).
For `C=CC(=O)N1CCc2ccc(-n3c(=O)ccc4cnc5ccc(-c6cnn(C)c6)cc5c43)cc21`, the remaining binding was 98% (KIT autoinhibited; KINOMEscan; 1 µM; relative to: DMSO control).
`O=C(Cc1ccc(OCc2ccccc2)cc1)NC1(C(=O)O)CCN(C(=O)c2ccc(-c3cccc(Cl)c3)cc2)CC1`: “activity vs control” 105% (KIT; enzyme activity, inhibitor; 10 µM).
For `C=C1CCCCCCCCCC(CO)C1=O` (stereo not shown), the remaining signal was 100% (KIT D816V; cell-free assay; 10 µM).
`CN1CC[C@@H](COc2cnc(C#N)cc2-c2ccn3nc(NC(=O)C4CC4)cc3c2)C1` gave an inhibition of 1% (KIT; enzyme activity, inhibitor; 1 µM).
`NC(=O)C[C@H]1CCc2sc3ncnc(O[C@H]4CC[C@H](N5CCOCC5)CC4)c3c21` gave an inhibition of 6% (KIT; enzyme activity, inhibitor; 10 µM).
With `CCN1CCN(Cc2ccc(C(=O)Nc3ccc(C)c(NCc4cnc5[nH]ccc5c4OC)c3)cc2C(F)(F)F)CC1` the remaining binding was 78% (KIT autoinhibited; binding, competition with immobilised ligand; 1 µM).
The remaining binding of `CC(C)=CC1OC(C)(C)C2C=C3C(=O)C(Cl)=CC(O)C3C3C(O)C4OC4C(=O)C132` (stereo not shown) is reported as 70% (KIT D816H; cell-free assay, competition with immobilised ligand; 10 µM).
The inhibition of `C=CC(=O)N1Cc2nc(-c3cc(-c4cc(Cl)cnc4Cl)c(F)cc3F)n(-c3ccncn3)c2C1` is reported as 9.8% (KIT; cell-free assay, inhibitor; 1 µM).
Under “activity vs control”, `CNC(=O)C[C@H](Cc1ccc(C#N)cc1)NC(=O)c1cc(-c2ccc(CN[C@H](C)c3ccc(C)cc3)o2)ccc1Cl` is recorded as 121% (KIT; enzyme activity, inhibitor; 1 µM).
`COCC12C(=O)NC3C4(C(OC)CC1O)C1CC5(O)C(OC)C(O)C(OC(C)=O)(C1C5OC(=O)c1ccccc1)C3(O)C(OC)C24` (stereo not shown) has a remaining activity of 103% and 95% (KIT (Homo sapiens, UniProt P10721, T670I); kinase activity, inhibitor, ProQinase kinase profiling; 25 µM; relative to: control).
`COC(=O)[C@@]1(C)C=C(C(=O)Nc2cccc(C(=O)Nc3ccc(Nc4nccc(-c5cccnc5)n4)c(C)c3)c2)C(=O)CC1` has a remaining activity of 69% (KIT; enzyme activity, inhibitor, radiometric; 1 µM).
For `Cc1nc2c(F)cc(-c3nc(Nc4ccc(CNC(=O)CCCCCCC(=O)NO)cc4)ncc3F)cc2n1C(C)C`, the inhibition was 27% (KIT D816V; enzyme activity, inhibitor; 1 µM).
The inhibition of `C=CC(=O)Nc1cccc(-c2cnc3[nH]cc(C(=O)NC(C)(C)C)c3n2)c1` is reported as -7% and -6% (KIT; kinase activity; 0.1 µM).
With `CNC(=O)C1CCN(c2cc(C)c(F)cc2NC(=O)c2ccc(-c3cc(O)ccc3C)c(C)c2)CC1` the remaining binding was 70% (KIT (Homo sapiens, UniProt P10721, V559D); binding, competition with immobilised ligand; 1 µM).
`Cc1cnc2nc1Nc1cccc(c1)COC/C=C/COCc1cc(ccc1OCCN1CCOCC1)N2` gave a remaining binding of 99% (KIT T670I/V559D; binding; 0.1 µM).
For `C=CC(=O)N1CCCC(n2c(=O)c3ncccc3n(Cc3ccc(Oc4ccccc4)cc3)c2=O)C1` (stereo not shown), the remaining binding was 96% (KIT D816V; cell-free assay, competition with immobilised ligand; 1 µM).
`CCn1cc(C(=O)O)c(=O)c2c(N)c(F)c(NC3CCCCC3)cc21` has an inhibition of -11.4% (KIT; kinase activity; 0.1 µM, together with: ATP at Km).
`Nc1ncc2c(n1)-c1c([nH]c3ccc(C4=CCOCC4)cc13)CCC2` gave a remaining binding of 100% (KIT T670I/V559D; binding, competition with immobilised ligand; 1 µM).
`Nc1ncc(-c2cc(-c3cnn(CC(F)(F)F)c3)ncc2F)nc1C(=O)NC1CNCC(F)C1` (stereo not shown) has a remaining activity of 98.2% (KIT; enzyme activity; 1 µM; relative to: DMSO control).
`O=C=[N][Ru-4]123([n]4c5ccc(O)cc5c5c6c(c7cc(F)c[n+]1c7c54)C(=O)NC6=O)[S+]1CC[S+]2CC[S+]3CC1` (stereo not shown) gave a remaining activity of 54% (KIT D816H; enzyme activity; 100 nM, human enzyme, together with: 10 µM ATP; relative to: untreated).
